Measurements from different studies.
Protocols differ between the studies behind these lines. Several values in a cell are separate wells, animals, samples, runs or records.
NEK2: Serine/threonine-protein kinase Nek2 (NEK2, Homo sapiens, UniProt P51955)
Chain of UniProt P51955 (whole entry, unmodified, looked up): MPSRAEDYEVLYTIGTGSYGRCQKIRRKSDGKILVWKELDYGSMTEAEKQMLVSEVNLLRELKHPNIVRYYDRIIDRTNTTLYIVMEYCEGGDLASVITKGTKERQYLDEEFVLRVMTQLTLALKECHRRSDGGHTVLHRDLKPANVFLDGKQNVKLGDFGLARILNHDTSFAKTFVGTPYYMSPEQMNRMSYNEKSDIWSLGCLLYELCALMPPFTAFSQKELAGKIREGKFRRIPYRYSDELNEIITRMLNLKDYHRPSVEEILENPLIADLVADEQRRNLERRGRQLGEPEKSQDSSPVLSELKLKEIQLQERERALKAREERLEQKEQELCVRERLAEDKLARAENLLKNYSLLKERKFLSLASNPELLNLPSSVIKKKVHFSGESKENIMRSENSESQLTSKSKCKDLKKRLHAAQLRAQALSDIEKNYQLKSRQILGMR
TDP1: Tyrosyl-DNA phosphodiesterase 1 (TDP1, Homo sapiens, UniProt Q9NUW8)
Chain of UniProt Q9NUW8 (whole entry, looked up): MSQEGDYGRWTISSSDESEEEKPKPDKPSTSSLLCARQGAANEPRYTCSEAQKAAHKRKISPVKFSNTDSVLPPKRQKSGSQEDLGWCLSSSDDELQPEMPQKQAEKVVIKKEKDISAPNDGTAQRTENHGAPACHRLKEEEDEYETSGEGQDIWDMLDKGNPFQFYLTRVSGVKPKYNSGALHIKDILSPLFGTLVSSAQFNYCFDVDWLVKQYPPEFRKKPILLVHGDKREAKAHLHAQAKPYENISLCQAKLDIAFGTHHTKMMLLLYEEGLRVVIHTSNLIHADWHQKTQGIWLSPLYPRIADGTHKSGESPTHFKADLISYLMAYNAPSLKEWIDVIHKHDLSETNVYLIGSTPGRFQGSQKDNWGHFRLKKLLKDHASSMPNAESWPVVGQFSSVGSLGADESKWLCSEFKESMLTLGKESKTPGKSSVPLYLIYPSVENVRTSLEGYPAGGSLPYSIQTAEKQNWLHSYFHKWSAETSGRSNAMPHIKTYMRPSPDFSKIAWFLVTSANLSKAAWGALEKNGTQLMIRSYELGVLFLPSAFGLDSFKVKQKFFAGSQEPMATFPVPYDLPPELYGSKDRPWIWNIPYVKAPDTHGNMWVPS

The inhibition of `COc1cc(-n2cc3cc(F)cc(C(N)=O)c3n2)cc(Cl)c1C1CC(O)(CCO)Cc2ccccc21` (stereo not shown) is reported as 0.79% (NEK2; enzyme activity, inhibitor; 10 µM).
`O=C=[N][Ru-4]123([n]4c5ccc(O)cc5c5c6c(c7cc(F)c[n+]1c7c54)C(=O)NC6=O)[S+]1CC[S+]2CC[S+]3CC1` (stereo not shown) gave a remaining activity of 105% (NEK2; enzyme activity; 100 nM, human enzyme, with: 10 µM ATP; relative to: untreated).
For `CC(C)=CC1OC(C)(C)C2C=C3C(=O)C(Cl)=CC(O)C3C3C(O)C4OC4C(=O)C132` (stereo not shown), the remaining binding was 94% (NEK2; cell-free assay, competition with immobilised ligand; 10 µM).
`Cc1ccc(-c2c(/C=C(\C#N)C(=O)NC(C)C)n(CCCO)c3ncnc(N)c23)cc1` gave a remaining binding of 71% (NEK2; cell-free assay, competition with immobilised ligand; 1 µM).
`N[C@H]1CC[C@H](Nc2nccc(-c3cccnc3Oc3ccc(NC(=O)NC4CC4)c4ccccc34)n2)CC1`: “log2 LFQ intensity” 19.5 and 20.8 and 20.9 and 20.3 (NEK2; kinobead competition pulldown; HEK293/HCT116 lysate mixture; 10 µM, 1 h, 4 °C; lower = stronger competition).
`COc1ccc(C(=O)/C=C/c2ccccc2-c2c[nH]c3ccc(C#N)cc23)c(O)c1` gave an inhibition of 0% (NEK2; enzyme activity, inhibitor; 20 µM).
The remaining activity of `Cc1cccc(-c2ccc3nc(NC(=O)C4CCCCC4)nn3c2)c1` is reported as 95% (NEK2; enzyme activity, Dundee kinase panel; 10 µM).
With `Cc1noc(-c2ccc(C=NOCc3ccc(-c4nc5cc(-c6ccccc6)ccn5c4Nc4ccc(C(=O)O)cc4)cc3)cc2)n1` the inhibition was 98.5% (TDP1; enzyme activity, inhibitor; 100 µM).
`Cc1[nH]nc2c1N=C(c1ccccc1Cl)c1cnc(N3CCOCC3)cc1N2` gave an inhibition of 3.2% (NEK2; enzyme activity, inhibitor; 0.5 µM).
`Cc1cnc2nc1Nc1cccc(c1)COC/C=C/COCc1cc(ccc1OCCN1CCOCC1)N2` has a remaining binding of 91% (NEK2; binding; 0.1 µM).
With `O=C(O)c1ccc(Nc2c(-c3ccccc3)nc3ccc(CON=CC4CCCCN4C(=O)OCc4ccccc4)cn23)cc1` (stereo not shown) the inhibition was 6.5% (TDP1; enzyme activity, inhibitor; 100 µM, unpurified compound).
For `Cc1cccc(O[C@H]2CCC[C@@H](C(C)CNCc3ccncc3)C2)c1` (relative stereo), the inhibition was 1% (NEK2; enzyme activity, inhibitor; 1 µM).
With `CNC(=O)C1CCN(c2cc(C)c(F)cc2NC(=O)c2ccc(-c3cc(O)ccc3C)c(C)c2)CC1` the remaining binding was 97% (NEK2; binding, competition with immobilised ligand; 1 µM).
For `CN1CC[C@@H](COc2cnc(C#N)cc2-c2ccn3nc(NC(=O)C4CC4)cc3c2)C1`, the inhibition was -5% (NEK2; enzyme activity, inhibitor; 1 µM).
With `C=CC(=O)N1CCc2ccc(-n3c(=O)ccc4cnc5ccc(-c6cnn(C)c6)cc5c43)cc21` the remaining binding was 92% (NEK2; KINOMEscan; 1 µM; relative to: DMSO control).
With `C=CC(=O)Nc1cccc(-c2cnc3[nH]cc(C(=O)NC(C)(C)C)c3n2)c1` the inhibition was 13% and 15% (NEK2; kinase activity; 0.1 µM).
`CCn1cc(C(=O)O)c(=O)c2c(N)c(F)c(NC3CCCCC3)cc21` gave an inhibition of 18.9% (NEK2; kinase activity; 0.1 µM, with: ATP at Km).
The remaining activity of `COc1cc(Nc2nc(C)cc(-c3cnn4nc(OC)ccc34)n2)cc(C(F)(F)F)c1` is reported as 98% (NEK2; inhibitor; 1 µM; relative to: control).
`Cc1cccc(-c2ccc3nc(NC(=O)C4CCOCC4)nn3c2)c1` has a remaining activity of 83% (NEK2; enzyme activity, Dundee kinase panel; 10 µM).
With `Nc1nc(Nc2ccccc2)sc1C(=O)c1ccccc1` the remaining activity was 68% (NEK2; enzyme activity, inhibitor; 10 µM).
The inhibition of `NC(=O)[C@@H](O)C[C@H]1CCc2sc3ncnc(O[C@H]4CC[C@H](N5CCOCC5)CC4)c3c21` is reported as 0% (NEK2; enzyme activity, inhibitor; 10 µM).
`C=CC(=O)N1CCCC(n2c(=O)c3ncccc3n(Cc3ccc(Oc4ccccc4)cc3)c2=O)C1` (stereo not shown) gave a remaining binding of 100% (NEK2; cell-free assay, competition with immobilised ligand; 1 µM).
With `COc1ccc(NC(=O)Nc2ccc3c(c2)C(=O)N(C(C)CO)CC(C)C(CN(C)Cc2ccc4c(c2)OCO4)O3)cc1` (stereo not shown) the remaining activity was 109% (NEK2; kinase activity, KinaseProfiler; 0.03 µM, species human; relative to: control).
The remaining activity of `COCC12C(=O)NC3C4(C(OC)CC1O)C1CC5(O)C(OC)C(O)C(OC(C)=O)(C1C5OC(=O)c1ccccc1)C3(O)C(OC)C24` (stereo not shown) is reported as 101% (NEK2; kinase activity, inhibitor, ProQinase kinase profiling; 25 µM; relative to: control).
With `Nc1ncc2c(n1)-c1c([nH]c3ccc(C4=CCOCC4)cc13)CCC2` the remaining binding was 100% (NEK2; binding, competition with immobilised ligand; 1 µM).

Repeated from above:
`COc1ccc(C(=O)/C=C/c2ccccc2-c2c[nH]c3ccc(C#N)cc23)c(O)c1` gave an inhibition of 0% (NEK2; enzyme activity, inhibitor; 20 µM).
The remaining activity of `Cc1cccc(-c2ccc3nc(NC(=O)C4CCCCC4)nn3c2)c1` is reported as 95% (NEK2; enzyme activity, Dundee kinase panel; 10 µM).
With `Cc1noc(-c2ccc(C=NOCc3ccc(-c4nc5cc(-c6ccccc6)ccn5c4Nc4ccc(C(=O)O)cc4)cc3)cc2)n1` the inhibition was 98.5% (TDP1; enzyme activity, inhibitor; 100 µM).
